Measured values of several laboratories.
Numbered parts are unrelated; each lists some results of a single study. Changes are numbered by the printed parent chain.

Study 1 — method: DHFR PCA, deep sequencing; matrix: yeast; added: (+)-ABA 0.032 µM; baseline: wild-type fitted maximum; reading: higher = stronger binding
Target: ABI1, truncated, D143A, DHFR fusion (Arabidopsis thaliana)
Notes: methotrexate growth selection, single substitutions
Starting sequence: PYL1, truncated, DHFR fusion (Arabidopsis thaliana); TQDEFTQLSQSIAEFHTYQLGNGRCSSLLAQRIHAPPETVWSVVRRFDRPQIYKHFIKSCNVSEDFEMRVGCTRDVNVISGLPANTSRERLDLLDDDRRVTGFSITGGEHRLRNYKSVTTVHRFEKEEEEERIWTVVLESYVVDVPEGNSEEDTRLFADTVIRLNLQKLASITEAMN; partner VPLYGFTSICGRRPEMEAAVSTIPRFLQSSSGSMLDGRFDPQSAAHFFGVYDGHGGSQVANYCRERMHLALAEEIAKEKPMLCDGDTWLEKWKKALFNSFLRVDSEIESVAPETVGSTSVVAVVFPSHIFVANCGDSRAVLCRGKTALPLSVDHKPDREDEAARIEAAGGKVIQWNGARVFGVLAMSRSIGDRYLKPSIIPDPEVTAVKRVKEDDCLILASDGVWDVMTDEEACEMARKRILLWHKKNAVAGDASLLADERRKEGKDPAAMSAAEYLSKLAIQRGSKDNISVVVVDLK
Substitution | relative binding score
E127P | 47.2%
K126L | 27.5%
R113H | 12.2%
R98D | 0.419%
V118R | 37.1%
R98S | 1.46%
N61H | 51.3%
I133G | 35.9%
T39I | 39.7%
K126F | 17.7%
Y53E | 1.58%
N61F | 20.9%
I162M | 2.75%
T154F | -14.9%
G102V | 0.956%
H110N | 67.3%
L93C | 9.21%
E4Q | 14.3%
Y141H | 6.22%

Study 2 — method: RNA Bind-n-Seq; molecule type: RNA; matrix: in vitro; concentration: not given; baseline: input RNA pool; reading: higher = stronger binding
Target: RING finger protein unkempt homolog, zinc fingers 1-6, GST-SBP tag (UNK, Homo sapiens, UniProt Q9C0B0, residues 30-357)
Sequence of UniProt Q9C0B0 (30-357, looked up): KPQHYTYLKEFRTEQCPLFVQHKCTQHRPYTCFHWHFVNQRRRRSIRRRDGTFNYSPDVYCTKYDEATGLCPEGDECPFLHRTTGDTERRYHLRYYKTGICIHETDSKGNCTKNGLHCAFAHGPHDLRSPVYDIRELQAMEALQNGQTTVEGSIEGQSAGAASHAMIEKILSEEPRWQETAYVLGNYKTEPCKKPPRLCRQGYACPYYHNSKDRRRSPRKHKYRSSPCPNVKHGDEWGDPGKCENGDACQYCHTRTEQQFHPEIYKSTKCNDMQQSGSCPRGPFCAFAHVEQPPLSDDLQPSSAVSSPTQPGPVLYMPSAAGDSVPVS
Notes: RNA with constant flanks, human and mouse sites, ends assumed
Shared flanks, not repeated: GGGAGUUCUACAGUCCGACGAUC … CAACAGAGGAUUGAGCAUCA
Strand | bound/input enrichment [ratio]
CCCCACUUCCAGUGUUUUUGCAUUGCAUUUUACCGAGCCGCCCAUCUCUGCUCAGCUUUUGGCUUUUCUCCGAGUAUUCUGUAUGACUGAAGAAGAACUGAAAGAACACUUGCUGGGAGA | 0.112
CUUAAAAAUACUAAACAGAAAAAAAAAAGAAAAACAAAAAACUAGUCCAGGUAUGAUGGUGCCUGCCUUUAACCCCAGCACUUGGGAGGUAGAGGUGGGCAGAUCUCUUGAGAGAUCUGG | 1.14
UAAAAUUUGCAAGUGUAUGGAGGACUAACCUCACUGACAGGAGGGGAUUCCACCUGGGAUUAGCUUUAUGAUUGUUGAUUGCCUAUUUUGCCAUUUAUAAACUGAAAGAAGGCACUAAAG | 0.293
AAUGACAAGGUGAAGUAUGAAGUAACAGAAGAUGUGUACACAUCCAGAAAGAAACAACACCAGACCAUGAUGCAUUAUUUUUGUGCAUUAAAUACUCUUCAGUACAAGAAGAAAAUAGCA | 0.223
CAUUCUCUGCAUUUUAAUGAGAAUAUUGCAGCAGUCAUGAAGAAGGGCUUUAAUCUAGAAGAACUAGAAAAGAAUAAUGCACACAGCAUACAAGUCCUCAAGGGCCCUCAUUUAACUAAU | 0.604
CUAGUUUGUGUUUGUUUUUAAGAUUAAAUUAAUCCUUGAUAAAAGUUGCUUUUUUAGGGGUUAGUCUUUGACCACUAUAGUUUGAUGCCAUCUCCAUUUUGGUUGACCUGUCUCACCAUC | 6.33
UGUGGAAUCAAGCACCUUCAUUCUGCUGGAAUUAUUCAUCGGGACUUAAAGCCCAGUAAUAUAGUAGUAAAAUCUGAUUGCACUUUGAAGAUUCUUGACUUCGGUCUGGCCAGGACUGCA | 0.205
GAUAUUCUAAGAUCACAGUGGUCGCCUGCUUUAACAAUUUCUAAAGUUCUUUUAUCCAUUUGUUCACUGCUAUGUGAUCCAAACCCAGAUGACCCCCUAGUGCCAGAGAUUGCACGGAUC | 0.439
GUAAUGGACGUUAAUACUGCUUUACAAGAGGUUCUGAAGACUGCCCUCAUCCACGAUGGCCUAGCACGUGGAAUUCGCGAAGCUGCCAAAGCCUUAGACAAGCGCCAAGCCCAUCUUUGU | 0.185
GAAUUCAUGCAUGAGACCCAUGAUGGAGUCCAGGAUAUGGCUUGUGAUACUUUCAUUAAAAUAGCCCAAAAAUGCCGCAGGCAUUUCGUUCAGGUUCAGGUUGGAGAAGUGAUGCCAUUU | 0.55
AAUGAAGAAGAAAUACGUGCAAAUGUGGCCGUGGUUUCUGGUGCACCACUUCAGGGGUUGGUAGCAAGACCUUCCAGUAUAAACUAUAUGGUGGCUCCUGUAACUGGUAAUGAUGUUGGA | 0.437

Study 3 — method: protein-binding microarray; molecule type: double-stranded DNA, one strand shown; matrix: in vitro; concentration: 940 nM top; notes: 60-bp whole probe; added: salmon DNA 0.4 mg/ml; baseline: random background probes; reading: higher = stronger binding; shared flanks, not repeated: GCCTAGCAC … GTCTTGATTCGCTTGACGCTGCTG
Target: Interferon regulatory factor 5, full length, phosphomimetic (IRF5, Homo sapiens, UniProt Q13568-2, residues 1-514, S451D/S453D/S456D/S462D)
Strand | fitted relative affinity
TTAGATTTCCGGTATCGATTAGTGCTA | 4.42 z-score
GTAGGACTGCTTTTCCTTTAGTGCTAG | -0.372 z-score
TTAGGTTTCCTTTCCCTCTAGTGCTAG | 2.53 z-score
TCATGTATTTGTCCCTAACTGTGCTAG | 1.11 z-score
TTAGGACTGGACTAACGGTTAGTGCTA | -0.594 z-score
GACGATTACAGTTCCGAGACGTGCTAG | 0.309 z-score
GACGGACTGGGATTGGGGACGTGCTAG | -0.0437 z-score
GACGAACTGGGGTAGCGAGACGTGCTA | -0.0161 z-score
CTCTGCTTGTGTCTGGGATTGTGCTAG | -0.133 z-score
TTAGGACTGGTCTATCGGTTAGTGCTA | -0.593 z-score
AACGGTTTCGACTTTCGGGACGTGCTA | 7.47 z-score
TCAATTTTGCTTCTAGAACTGTGCTAG | -0.104 z-score
TCATGATTGGTTGAACAACTGTGCTAG | -0.357 z-score
TCAGATTTCGGGACTGGATTAGTGCTA | 0.333 z-score
GACGATTGCAGTTTCGAGACGTGCTAG | 3.27 z-score
TTAGGTTTCGGTTTTGGTTAGTGCTAG | 15.1 z-score
TTTTTTTTCATCATTGCCTGGTGCTAG | 1.55 z-score

Study 4 — method: RNA Bind-n-Seq; molecule type: RNA; matrix: in vitro; concentration: 20 nM; notes: 6-mer, flanks averaged, single round; added: 150 mM LiCl; baseline: input library; reading: higher = stronger binding
Target: TAR DNA-binding protein 43, full length, His tag (TARDBP, Homo sapiens, UniProt Q13148, residues 1-414)
Strand | 6-mer enrichment (R)
AUUAGA | 0.896
ACUACG | 0.829
UCACCC | 1.02
ACCUUG | 0.982
AAGUAG | 0.966
GCGGCG | 1.12
AGCACC | 0.928
AGUUCA | 0.857
GGCGAC | 0.943
AAAUUU | 1.05
GGUGAG | 1.4
UCCUAU | 0.921
GAUGAG | 1.12
UCUUUU | 1.3
CCCAGA | 0.893
AGGGGU | 1.25
ACUCAC | 0.843
ACUCUU | 0.909
GUUCGG | 1.06
UCGUAA | 0.846
CCGAGU | 1
AUGGCG | 1.04
GCUUGA | 0.982
CUGUCA | 0.856
AAAUUC | 0.897

Study 5 — target: CCNF, cyclin fold, Cln2 fusion (human); method: yeast growth competition, sequencing; matrix: yeast; notes: strong parent motif; baseline: not given; reading: higher = stronger binding
Starting sequence: ORC1 docking peptide (human); PRARKRLELGNLG; partner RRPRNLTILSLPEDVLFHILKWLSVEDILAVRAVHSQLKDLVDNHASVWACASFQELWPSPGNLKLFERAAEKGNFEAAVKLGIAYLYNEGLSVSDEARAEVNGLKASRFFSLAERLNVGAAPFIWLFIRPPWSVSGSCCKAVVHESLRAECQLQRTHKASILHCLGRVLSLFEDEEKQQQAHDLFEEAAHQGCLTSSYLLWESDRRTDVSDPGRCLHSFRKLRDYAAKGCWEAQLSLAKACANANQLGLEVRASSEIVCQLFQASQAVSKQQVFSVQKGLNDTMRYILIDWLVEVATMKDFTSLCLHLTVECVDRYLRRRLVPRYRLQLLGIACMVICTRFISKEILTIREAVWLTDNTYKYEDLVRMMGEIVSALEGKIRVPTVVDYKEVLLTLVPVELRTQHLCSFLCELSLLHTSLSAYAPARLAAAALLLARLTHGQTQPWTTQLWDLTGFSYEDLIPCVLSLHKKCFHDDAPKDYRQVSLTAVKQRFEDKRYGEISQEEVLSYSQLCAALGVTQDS
Substitution | normalised enrichment score
L9G | 0.666
N11L | 3.91
L9A | 1.84
G10Y | 4.74
E8I | 4.03
L12A | 3.56
R6Q | 0.887
N11A | 3.03
G13A | 3.03
G13E | 4.97
R4L | 1.37
L7M | 0.672
G10V | 2.34
R6G | 1.6

Study 6 — method: RNA Bind-n-Seq; molecule type: RNA; matrix: in vitro; concentration: 365 nM; baseline: no-protein control; reading: higher = stronger binding
Target: RNA binding protein fox-1 homolog 2, RRM domain, GST-SBP tag (RBFOX2, Homo sapiens, UniProt O43251-10, residues 100-194)
Notes: natural RNA segment, single round, ends assumed
Shared flanks, not repeated: GGGAGUUCUACAGUCCGACGAUC … UGGAAUUCUCGGGUGCCAA
Residues (chain): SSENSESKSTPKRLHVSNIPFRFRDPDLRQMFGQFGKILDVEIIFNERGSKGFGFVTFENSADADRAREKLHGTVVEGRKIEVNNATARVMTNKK
Strand | RBNS enrichment (R)
CUGAACAAAGGACAAAGGGAAAGAAUGCGCUGCUUGAUAAAAUUAACCAAAUUCUAGCAUCUCAGAGUACAGUGAAAAGCAGCAGUGUACUCAGUGAUAAAGUUAGCCAG | 0.379
UCUGUUUGAGUAAACUAAGACUGACAGGGGAAUCGGGGUGCUCACAAGCGAGUCCCUCCAGCUGCUUUAGGAGCCGCUGUGUUCCUGCUGUGUCUUACAGGACUGGAGUG | 0.306
CAGGUAGGCAGCAGACAGACAGAUGACAGAUAGAUCUCCAUGGUAUGUUUUCCAUUUUCUUUUGUCAGAGGUGAGCUUGAAUGUGAUUAUCUGUAAAUUUGCUCAAAUAA | 6.66
CUGGCUCCCAUGACCAUACUGAGGGACCAACUGGGCCCAAGACAGAUGCCCCAGAGCUGUUUAUGGCCUCAGCUGCCUCACUUCCUACAAGAGCAGCCUGUGGCAUCUUU | 0.686
AAAAUUCCUUAAACAAAGCAUUCCUACAGCGUUUUGCUGGGUGAGAGGAAUCAAACUGGUUCCCUUUCUUUCUGGGAACCCCUGCCAUGUUACUCUAAAGACCCCAGCAA | 0.28
AAGGAGUCGGAGGCCUUCGUCUGCUGCUUUGGUUCGGUCUCCACUCCUGCACUUUGGCCCCACCCACCCAUCCUAGCCUCUCAUGGCCUCCCACCCCCAUGGGUGCUAGG | 1.32
UUUUUUGUGUUGAGGUGAUGUAGAUAAAUGUAUUUAUAUGCCUAGUUGGAUAUUCAAUAUUAUGAAUAUUAAAAAGGGGGCAAUAAAAGGGUAUGUAAAAUAUGUAUGAA | 3.13
AAAUUUGUUUUGUUUUGUUUUGUUAUUUUUUAGGGAACUCUUUUGCAAAAGCAAUGGUCGGAUGUAAAUAACAUUUAAAGUAUAGUGCACAUAACUUCCCCGGACUGUUC | 1.81
UUUCAACACAGUGUGCUCUCUAGUUAUCAUGUGUAACGUGGGUUCUGUUUAGCGAAGAUAGACUAGAGGACACGUUAGAGAUGCCCUUCCCUGCUCCAUCCCUGUGGCAC | 0.376
CUCAUGUUUCACAGCGUUCCUGUUUUUUCUCUCCCGCCACCCCCACCGGCAUUUCCUUCUUCCACCAGCUUUAAUGGAACUUUUUUUGGCACUGCUUUGCAUUGGAGUCA | 3.35
GGACUAGAAUAAAGACCUCUGGGGCUGGAGAGAGAGCUCAGUGGUUAAGAGUACUGGCUGUUGGGGUUGGUGAUUUAGCUCAGUGGCAGAGCACUUGCCUAGCAAGCACA | 0.57
CCAGCUGGCCUGCUGUGAAGCCAGUAGCUAUUUUAAAAGUGCUGGCUGCAGGAUUAAGCCAACCCUUUACAACUGGCCCAGACCGUAAUGGCCAUUUCUUCUUAAAAAAA | 0.445
